Assay results collected from several papers.
Compare with care: the assays were run in different laboratories. Values joined by “and” are separate records of one study, mostly repeats; a detail may differ. ± marks the error that the study gave.

The IC50 of CO[C@H]1CCN(Cc2c(C)cc(C)c3[nH]ccc23)[C@H](CO)C1 is reported as 2.2 ± 1.1 µM (alternative pathway MAC formation, inhibitor; 50% human serum; with: zymosan).
CN1CCCNC(=O)c2cccc(c2)C(=O)NCCCN(C)CCCNc2cccc3c2C(=O)c2cccc(c2C3=O)NCCC1 has a tumour volume of 180 mm3 and 181 mm3 and 307 mm3 and 178 mm3 (KSN/Slc nude mice, SAS xenograft; dose not given, day 6, 144 h).
Under NO release, COc1cc(/C=C2\CNC/C(=C\c3cc(Cl)c(O)c(OC)c3)C2=O)cc(Cl)c1O is recorded as “no effect” (BV-2, mouse; 1 µM, 24 h, with: LPS; baseline: LPS model).
CC(C)C[C@H](NC(=O)[C@H](Cc1ccccc1)NC(=O)[C@H](C)NC(=O)[C@@H](CS)NC(=O)CNC(=O)[C@H](N)CO)C(=O)N[C@@H](CO)C(=O)N[C@H](C(=O)N[C@@H](CCCCN)C(=O)N[C@@H](CCCCN)C(=O)N[C@@H](CCC(N)=O)C(=O)N[C@@H](Cc1ccccc1)C(=O)N[C@@H](CCC(=O)O)C(=O)N[C@@H](CCC(=O)O)C(=O)N[C@@H](CC(C)C)C(=O)N[C@H](C(=O)N[C@@H](CC(C)C)C(=O)NCC(=O)N[C@@H](CCC(=O)O)C(=O)N[C@@H](Cc1ccccc1)C(=O)N[C@@H](CC(C)C)C(=O)N[C@H](CCCCN)C(=O)N[C@H](CC(C)C)C(=O)N[C@H](CC(=O)O)C(=O)N[C@@H](CCCNC(=N)N)C(=O)N[C@H](CCCNC(=N)N)C(=O)N[C@@H](CCCNC(=N)N)C(=O)N[C@@H](CCCCN)C(=O)O)[C@@H](C)O)C(C)C — result for “Ki-67 expression decrease”: 80% (immunofluorescence, RT-qPCR; mouse A549 xenograft, tumour; intravenous, 20 mg/kg).
CN(C)C(=O)c1ccnc(N2Cc3cn(Cc4ccc(F)cc4F)nc3C2)n1 — result for “Cohen's d effect size”: -0.036 (immunostaining intensity, item: non-phosphorylated neurofilament SMI32; mouse cuprizone diet, corpus callosum; dose not given, unit not given; baseline: cuprizone plus vehicle).
Oc1ccccc1C1Nc2ccccc2C2=[O+][Cu-2]3([Cl])[O]c4ccccc4C=[N+]3N21 (centres unmarked) has an IC50 of 450 µM (photosynthetic electron transport; Spinacia oleracea chloroplasts).
For CC(=O)[O-].O.O.O.O.[Mn+2].[O-]c1ccc(Br)cc1C=NCCN1CCOCC1, the inhibition was 11.1% (DPPH radical scavenging; 40 µM).
Under “third-quartile larval motion”, OC(COCC1COc2ccccc2O1)CN1CCN(c2ccccc2)CC1 (centres unmarked) is recorded as 2 ± 0.8 pixels/frame (locomotor activity in dark; Danio rerio larvae, 7 dpf, well of 10 larvae; 10 µM, minute 7, dark).
Under “observed rate constant kobs”, O=C(NCC1OC2CCC=CCCC2O1)c1ccc(F)nc1 (centres unmarked) is recorded as 2.57 ± 0.00526 s⁻¹ (IEDDA cycloaddition, substrate, stopped-flow spectrophotometry; water/methanol 45:55; 0.25 mM, 298 K, with: methyltetrazine-NHS 0.05 mM).
For C[C@@H]1O[C@@H](OC[C@H]2O[C@@H](Oc3c(-c4ccc(O)cc4)oc4cc(O)cc(O)c4c3=O)[C@H](O[C@@H]3O[C@@H](C)[C@H](O)[C@@H](O)[C@H]3O)[C@@H](O)[C@@H]2O)[C@H](O)[C@H](O)[C@H]1O, lipid content read “decreased” (Oil Red O; 3T3-L1, mouse; 5 µM, day 8).
With NC[C@@H](C(=O)Nc1ccc(-c2cn[nH]c2)cc1)c1ccccc1 the IOP was 17.2 mmHg (tonometry; Macaca cyclopis, ocular normotensive; ocular, 0.03%, 56 h).
COC1CN([C@H]2CC[C@H]([C@@]3(C)Oc4c(Cl)cc(C(=O)NCc5c(SC)cc(C)[nH]c5=O)c(C)c4O3)CC2)C1 — result for “log2 fold change”: 1.26 (RNA-seq, item: NPL; human, whole blood; dose not given, 24 h; baseline: pretreatment baseline).
With CN1CCC[C@]1(C)/C=C/S(=O)(=O)NC(=O)Nc1c2c(cc3c1CCC3)CCC2 the IL-1β inhibition was 98.7% (human, whole blood ex vivo; 25 mg single dose, 3 h, single ascending dose, with: LPS and ATP).
COc1cc2nc(N3CCN(C(=O)C4CC5(CCC5)CO4)CC3)nc(N)c2cc1OC (centres unmarked) — result for “time to maximum BP lowering”: 15 min (blood pressure; spontaneously hypertensive rat, male; oral, 3 mg/kg).
COc1ccccc1C1CCN(CCC(=O)Nc2ccc(C)c(C)c2)CC1: “third-quartile larval motion” 2.2 ± 0.6 pixels/frame (locomotor activity in dark; Danio rerio larvae, 7 dpf, well of 10 larvae; 10 µM, minute 3, dark).
CC(CCC(=O)NCc1ccc(C(=O)NO)cc1)C1CCC2C3C(O)CC4CC(O)CCC4(C)C3CCC12C (centres unmarked) has a relative abundance of 5.14% (item: CA; PCK rat (Pkhd1 mutant), bile; oral gavage, dose not given, 5 months; baseline: total bile acids).
CCOC(=S)NCc1ccc(O[C@@H]2O[C@@H](C)[C@H](O)[C@@H](O)[C@H]2O)cc1 has a radical scavenging of 9.09 ± 1.43% (ABTS radical; 300 µg/mL).
Under “third-quartile larval motion”, COc1cccc(OCC(O)CN2CCN(c3ccccc3OC)CC2)c1 (centres unmarked) is recorded as 9.8 ± 1.4 pixels/frame (locomotor activity in dark; Danio rerio larvae, 7 dpf, well of 10 larvae; 10 µM, minute 1, dark).
For CCCCCCCCCCCCCCCC(=O)OCC(CSC[C@H](N)C(=O)N[C@@H](CO)C(=O)N[C@@H](CCCCN)C(=O)N[C@@H](CCCCN)C(=O)N[C@@H](CCCCN)C(=O)N[C@@H](CCCCN)C(=O)NCCCCCC(=O)N[C@@H](CCCCN)C(=O)N[C@@H](CC(C)C)C(=O)N[C@H](C(=O)N[C@@H](Cc1ccccc1)C(=O)N[C@@H](Cc1ccccc1)C(=O)N[C@@H](Cc1ccc2ccccc2c1)C(=O)O)C(C)C)OC(=O)CCCCCCCCCCCCCCC (some centres unmarked), “Aβ plaque area ratio” read 0.524 and 0.635 and 0.593 and 0.675 and 0.483 and 0.693 and 0.286 and 0.429 (OC antibody staining; APP/PS1 transgenic mouse, cortex; intracortical injection, dose not given, 5 d; baseline: injected over adjacent area).
For COc1c(Cl)cccc1Nc1c(-c2ccncc2C#C[C@@]2(C)CCCN2C(=O)/C=C/CN(C)C)[nH]c2c1C(=O)NCC2, “tumour growth inhibition” read 118% (female NOD/SCID mouse, PDX; 25 mg/kg once daily, 21 days, HER2 YVMA).
For CC[C@H](C)[C@@H](C(=O)N[C@@H](CC(C)C)C(=O)N[C@@H](CO)C(=O)N[C@@H](CO)C(=O)N[C@H](C(=O)N[C@@H](CCC(=O)O)C(=O)N[C@H](C(=O)NCC(=O)N[C@@H](CO)C(=O)N[C@@H](CC(N)=O)C(=O)N[C@H](C(=O)N1C[C@H](O)C[C@H]1C(N)=O)[C@@H](C)O)C(C)C)[C@@H](C)O)N(C)C(=O)[C@H](C)NC(=O)CN(C)C(=O)[C@H](Cc1ccccc1)NC(=O)[C@H](CO)NC(=O)[C@H](CO)NC(=O)[C@H](CCCNC(=N)N)NC(=O)[C@H](CCC(N)=O)NC(=O)[C@H](CC(C)C)NC(=O)[C@H](Cc1ccccc1)NC(=O)[C@H](CCCC(=O)O)NC(=O)[C@H](C)NC(=O)[C@H](CC(C)C)NC(=O)[C@H](CCCNC(=N)N)NC(=O)[C@H](CCC(=O)O)NC(=O)[C@@H](NC(=O)[C@H](C)NC(=O)[C@@H]1CCCCNC(=O)C[C@H](NC(=O)[C@H](CCCNC(=N)N)NC(=O)CC[C@H](NC(=O)CCCCCCCCCCCCCCCCCCC(=O)O)C(=O)O)C(=O)NCC(=O)N[C@@H]([C@@H](C)O)C(=O)N[C@@H](C)C(=O)N[C@@H]([C@@H](C)O)C(=O)N1)[C@@H](C)O, “body weight change” read 8.7% (diet-induced obese rats; subcutaneous, 3 nmol/kg every other day, day 20; baseline: day 0).
Under “third-quartile larval motion”, CCOC(=O)C1CCN(CCC(=O)Nc2ccccc2F)CC1 is recorded as 0 pixels/frame (locomotor activity in dark; Danio rerio larvae, 7 dpf, well of 10 larvae; 10 µM, minute 3, dark).
The amount of COc1cc(O)ccc1CCC(c1ccc(O)cc1)c1cc2c(c(C)c1O)OC(c1ccc(O)cc1)CC2 (mixture of isomers) is reported as 146 ± 42 pg/mL blood (item: 12-HEPE; human whole blood; 0.3 µM, with: A23187).
CC(C)OC(=O)[C@H](CO)NCc1cc(Cl)c(OCc2cccc(-c3ccccc3)c2Br)cc1OCc1cccnc1 gave a tumour volume of 1770 ± 919 mm³ (hPD-L1 MC-38 tumour, humanised hPD-1 C57BL/6 mouse; oral, 2.5 mg/kg × 21, day 20).
With Cc1ccc(S(=O)(=O)NN)cc1 the normalised absorbance was 0.875 (hydrazine ligation kinetics, absorbance; concentration not given, 40 s, with: 2-formylphenylboronic acid).
For COc1ccc(N2CCN(CC(O)COc3ccc4ccccc4c3)CC2)cc1 (centres unmarked), “third-quartile larval motion” read 4.8 ± 1.1 pixels/frame (locomotor activity in dark; Danio rerio larvae, 7 dpf, well of 10 larvae; 10 µM, minute 7, dark).
The normalised absorbance of NNC(=O)Cc1ccccc1 is reported as 0.742 (hydrazine ligation kinetics, absorbance; concentration not given, 45 s, with: 2-formylphenylboronic acid).
COc1ccccc1-c1ccncc1C(=O)Nc1nnc(OCc2ccc(Cl)cc2)s1 has a colony survival of 92.7% (Brca1 Δ11/Δ11 Polq-/- MEF, Mus musculus; 1.25 µM; baseline: 0 µM).
With Oc1cc2c(cc1O)C(c1ccco1)NCC2 (centres unmarked) the IC50 was 15.2 µM (DPPH scavenging, absorbance; 30 min, dark).
The normalised absorbance of CCOC(=O)NN is reported as 0.798 (hydrazine ligation kinetics, absorbance; concentration not given, 30 s, with: 2-formylphenylboronic acid).
Oc1cc2c(cc1O)C(c1ccccc1)NCC2 (centres unmarked) has an IC50 of 28.1 µM (DPPH scavenging, absorbance; 30 min, dark).
Under “body weight loss”, CC[C@H](C)[C@@H](C(=O)N[C@@H](CC(C)C)C(=O)N[C@@H](CO)C(=O)N[C@@H](CO)C(=O)N[C@H](C(=O)N[C@@H](CCC(=O)O)C(=O)N[C@H](C(=O)NCC(=O)N[C@@H](CO)C(=O)N[C@@H](CO)C(=O)N[C@H](C(=O)N1C[C@H](O)C[C@H]1C(N)=O)[C@@H](C)O)C(C)C)[C@@H](C)O)N(C)C(=O)[C@H](C)NC(=O)CN(C)C(=O)[C@H](Cc1ccccc1)NC(=O)[C@H](CO)NC(=O)[C@H](CO)NC(=O)[C@H](CCCNC(=N)N)NC(=O)[C@H](CCC(N)=O)NC(=O)[C@H](CC(C)C)NC(=O)[C@H](Cc1ccccc1)NC(=O)[C@H](Cc1c[nH]cn1)NC(=O)[C@H](C)NC(=O)[C@H](CC(C)C)NC(=O)[C@H](CCCNC(=N)N)NC(=O)[C@H](CCC(=O)O)NC(=O)[C@@H](NC(=O)[C@H](C)NC(=O)[C@@H]1CSSC[C@H](NC(=O)[C@H](CCCNC(=N)N)NC(=O)CC[C@H](NC(=O)CCCCCCCCCCCCCCCCCCC(=O)O)C(=O)O)C(=O)NCC(=O)N[C@@H]([C@@H](C)O)C(=O)N[C@@H](C)C(=O)N[C@@H]([C@@H](C)O)C(=O)N1)[C@@H](C)O is recorded as 6.3 ± 0.2% (male Sprague-Dawley rats; subcutaneous, 30 nmol/kg single dose, 96 h).

For quick reference, copied from above:
CN1CCCNC(=O)c2cccc(c2)C(=O)NCCCN(C)CCCNc2cccc3c2C(=O)c2cccc(c2C3=O)NCCC1 has a tumour volume of 180 mm3 and 181 mm3 and 307 mm3 and 178 mm3 (KSN/Slc nude mice, SAS xenograft; dose not given, day 6, 144 h).
Oc1cc2c(cc1O)C(c1ccccc1)NCC2 (centres unmarked) has an IC50 of 28.1 µM (DPPH scavenging, absorbance; 30 min, dark).
